# Literature values that unrelated publications cite.
# Protocols differ between the studies behind these lines. ± gives the spread as reported.
# Chain of UniProt P80299 (whole entry, looked up): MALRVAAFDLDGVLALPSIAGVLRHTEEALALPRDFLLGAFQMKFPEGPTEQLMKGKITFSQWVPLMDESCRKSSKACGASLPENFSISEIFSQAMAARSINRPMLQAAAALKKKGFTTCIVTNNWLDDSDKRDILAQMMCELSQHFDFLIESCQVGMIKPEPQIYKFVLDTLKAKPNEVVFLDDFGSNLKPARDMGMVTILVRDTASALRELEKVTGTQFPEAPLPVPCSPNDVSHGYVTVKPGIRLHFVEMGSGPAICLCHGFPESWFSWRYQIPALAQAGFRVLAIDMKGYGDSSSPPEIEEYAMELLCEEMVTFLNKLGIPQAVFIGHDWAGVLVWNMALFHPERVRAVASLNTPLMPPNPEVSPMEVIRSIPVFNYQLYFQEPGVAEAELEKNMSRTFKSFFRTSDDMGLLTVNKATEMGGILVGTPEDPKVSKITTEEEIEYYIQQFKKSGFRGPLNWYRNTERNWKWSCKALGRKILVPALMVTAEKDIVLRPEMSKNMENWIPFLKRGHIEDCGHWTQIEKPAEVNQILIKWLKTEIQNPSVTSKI
# Chain of UniProt P08842 (whole entry, looked up): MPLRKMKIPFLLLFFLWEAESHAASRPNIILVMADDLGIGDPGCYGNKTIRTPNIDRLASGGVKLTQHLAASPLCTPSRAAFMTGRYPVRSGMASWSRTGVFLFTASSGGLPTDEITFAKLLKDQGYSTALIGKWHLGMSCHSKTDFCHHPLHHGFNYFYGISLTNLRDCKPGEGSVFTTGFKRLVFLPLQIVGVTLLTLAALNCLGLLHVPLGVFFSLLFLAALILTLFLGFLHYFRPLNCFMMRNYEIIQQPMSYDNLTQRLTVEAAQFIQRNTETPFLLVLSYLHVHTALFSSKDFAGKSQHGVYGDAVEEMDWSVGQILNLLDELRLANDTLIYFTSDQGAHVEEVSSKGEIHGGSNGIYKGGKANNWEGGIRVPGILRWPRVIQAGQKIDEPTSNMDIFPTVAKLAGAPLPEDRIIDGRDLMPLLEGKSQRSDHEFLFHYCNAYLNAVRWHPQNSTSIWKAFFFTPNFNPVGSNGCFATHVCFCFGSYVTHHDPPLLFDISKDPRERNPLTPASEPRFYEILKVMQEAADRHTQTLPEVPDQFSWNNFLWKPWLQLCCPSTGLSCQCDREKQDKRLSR
# Chain of UniProt Q8N6T7 (whole entry, looked up): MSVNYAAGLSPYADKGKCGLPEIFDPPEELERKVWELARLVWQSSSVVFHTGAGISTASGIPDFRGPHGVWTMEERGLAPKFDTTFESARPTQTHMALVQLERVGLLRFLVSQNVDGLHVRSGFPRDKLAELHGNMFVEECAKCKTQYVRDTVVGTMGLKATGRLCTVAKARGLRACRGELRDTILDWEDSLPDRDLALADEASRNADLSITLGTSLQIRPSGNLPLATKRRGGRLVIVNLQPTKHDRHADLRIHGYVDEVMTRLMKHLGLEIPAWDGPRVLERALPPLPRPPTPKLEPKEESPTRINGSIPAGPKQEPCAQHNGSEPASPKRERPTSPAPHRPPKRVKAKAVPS
# Chain of UniProt P21741 (whole entry, looked up): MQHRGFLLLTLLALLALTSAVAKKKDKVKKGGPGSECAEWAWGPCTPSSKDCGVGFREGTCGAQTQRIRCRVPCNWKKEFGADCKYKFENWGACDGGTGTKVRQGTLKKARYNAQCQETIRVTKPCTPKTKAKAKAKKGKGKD
# Chain of UniProt P28845 (whole entry, looked up): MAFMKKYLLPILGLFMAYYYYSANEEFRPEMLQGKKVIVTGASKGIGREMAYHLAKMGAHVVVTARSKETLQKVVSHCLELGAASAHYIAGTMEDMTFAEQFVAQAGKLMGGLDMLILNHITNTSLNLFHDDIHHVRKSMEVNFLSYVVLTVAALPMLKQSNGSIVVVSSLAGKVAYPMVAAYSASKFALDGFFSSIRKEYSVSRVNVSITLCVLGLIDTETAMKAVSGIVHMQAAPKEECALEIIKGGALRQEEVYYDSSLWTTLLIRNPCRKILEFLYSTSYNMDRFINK
# Chain of UniProt Q99250 (whole entry, looked up): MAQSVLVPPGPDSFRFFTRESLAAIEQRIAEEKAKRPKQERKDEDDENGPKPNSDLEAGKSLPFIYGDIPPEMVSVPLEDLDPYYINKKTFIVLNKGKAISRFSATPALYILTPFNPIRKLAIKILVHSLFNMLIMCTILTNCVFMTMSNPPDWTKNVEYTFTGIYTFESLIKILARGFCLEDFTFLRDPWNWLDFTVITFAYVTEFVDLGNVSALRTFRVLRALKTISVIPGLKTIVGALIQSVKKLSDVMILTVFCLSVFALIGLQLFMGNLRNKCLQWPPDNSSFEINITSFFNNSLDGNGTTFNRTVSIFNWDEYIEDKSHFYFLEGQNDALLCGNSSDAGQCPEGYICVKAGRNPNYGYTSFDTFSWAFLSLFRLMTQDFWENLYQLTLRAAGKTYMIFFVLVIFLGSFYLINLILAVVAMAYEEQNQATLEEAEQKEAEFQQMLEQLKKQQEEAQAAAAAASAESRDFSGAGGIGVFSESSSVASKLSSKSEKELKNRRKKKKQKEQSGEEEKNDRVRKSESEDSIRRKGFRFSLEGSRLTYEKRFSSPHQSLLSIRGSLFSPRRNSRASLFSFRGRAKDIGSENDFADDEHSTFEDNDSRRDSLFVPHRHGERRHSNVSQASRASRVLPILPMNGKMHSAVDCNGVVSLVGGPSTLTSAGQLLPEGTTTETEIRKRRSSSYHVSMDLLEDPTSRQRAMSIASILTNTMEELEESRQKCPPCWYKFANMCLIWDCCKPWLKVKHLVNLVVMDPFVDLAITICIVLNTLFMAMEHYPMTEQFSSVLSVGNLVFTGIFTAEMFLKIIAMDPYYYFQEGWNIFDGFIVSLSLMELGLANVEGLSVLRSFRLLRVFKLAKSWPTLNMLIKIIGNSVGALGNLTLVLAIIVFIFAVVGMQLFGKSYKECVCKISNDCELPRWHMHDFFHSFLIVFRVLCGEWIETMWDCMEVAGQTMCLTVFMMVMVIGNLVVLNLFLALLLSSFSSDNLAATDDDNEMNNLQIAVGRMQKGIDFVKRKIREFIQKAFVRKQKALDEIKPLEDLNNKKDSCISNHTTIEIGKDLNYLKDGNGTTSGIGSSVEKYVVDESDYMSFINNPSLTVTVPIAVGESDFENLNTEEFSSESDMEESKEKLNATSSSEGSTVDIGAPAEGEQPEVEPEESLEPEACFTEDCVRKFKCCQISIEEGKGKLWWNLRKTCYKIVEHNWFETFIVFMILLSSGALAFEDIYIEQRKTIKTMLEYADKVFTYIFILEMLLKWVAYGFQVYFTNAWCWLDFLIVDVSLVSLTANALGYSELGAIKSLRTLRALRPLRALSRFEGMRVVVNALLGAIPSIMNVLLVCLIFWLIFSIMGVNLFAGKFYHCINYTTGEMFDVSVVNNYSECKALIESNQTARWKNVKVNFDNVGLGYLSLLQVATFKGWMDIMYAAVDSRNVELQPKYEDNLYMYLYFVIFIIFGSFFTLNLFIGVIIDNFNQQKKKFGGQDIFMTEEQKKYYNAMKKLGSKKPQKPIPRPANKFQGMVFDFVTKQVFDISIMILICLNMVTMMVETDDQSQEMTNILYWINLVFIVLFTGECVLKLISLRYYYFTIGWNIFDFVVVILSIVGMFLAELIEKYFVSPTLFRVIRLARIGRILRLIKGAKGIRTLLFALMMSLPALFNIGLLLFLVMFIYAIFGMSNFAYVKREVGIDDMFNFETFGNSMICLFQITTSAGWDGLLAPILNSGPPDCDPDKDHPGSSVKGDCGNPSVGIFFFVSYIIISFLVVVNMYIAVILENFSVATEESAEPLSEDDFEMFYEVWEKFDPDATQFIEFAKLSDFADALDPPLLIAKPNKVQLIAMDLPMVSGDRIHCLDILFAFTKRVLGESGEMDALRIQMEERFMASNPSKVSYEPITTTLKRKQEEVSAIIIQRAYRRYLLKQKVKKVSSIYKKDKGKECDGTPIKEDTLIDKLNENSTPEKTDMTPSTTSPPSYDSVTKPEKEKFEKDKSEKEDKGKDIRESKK
# Chain of UniProt Q06187 (whole entry, looked up): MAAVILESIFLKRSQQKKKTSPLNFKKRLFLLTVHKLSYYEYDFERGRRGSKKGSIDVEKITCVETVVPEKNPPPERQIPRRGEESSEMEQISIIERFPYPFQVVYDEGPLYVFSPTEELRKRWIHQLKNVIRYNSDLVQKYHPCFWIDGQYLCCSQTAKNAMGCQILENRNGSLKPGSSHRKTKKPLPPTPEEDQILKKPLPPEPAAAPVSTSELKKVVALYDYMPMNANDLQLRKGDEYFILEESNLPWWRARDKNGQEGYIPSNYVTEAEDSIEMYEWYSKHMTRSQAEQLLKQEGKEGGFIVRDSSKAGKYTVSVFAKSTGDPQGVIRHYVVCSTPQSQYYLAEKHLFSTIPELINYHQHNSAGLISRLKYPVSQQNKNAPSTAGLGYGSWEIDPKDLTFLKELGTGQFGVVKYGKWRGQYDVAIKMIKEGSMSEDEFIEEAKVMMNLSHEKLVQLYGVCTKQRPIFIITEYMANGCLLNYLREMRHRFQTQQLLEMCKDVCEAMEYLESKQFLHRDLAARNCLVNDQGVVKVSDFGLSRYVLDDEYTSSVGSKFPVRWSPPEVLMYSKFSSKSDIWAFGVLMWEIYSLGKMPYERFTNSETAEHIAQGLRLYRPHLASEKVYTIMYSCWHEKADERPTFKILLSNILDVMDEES
SMILES,target,test,test system,conditions,IC50 [nM]
N=C(N)N/N=C1/C=C2C/C(=N\NC(=N)N)C=C2C1,"Mycosin-1 (Mycolicibacterium thermoresistibile, UniProt G7CDQ2)",inhibitor,,,48000
N#Cc1ccc(N(Cc2ccc(OS(N)(=O)=O)c(F)c2)n2cnnc2)cc1,"Steryl-sulfatase (STS, Homo sapiens, UniProt P08842)","enzyme activity, inhibitor",JEG-3,,10 to 100
CC1CCC2C(C)(C)C(O)CCC2(C)C12Cc1c(O)cc3c(c1O2)CN(CCCCC(C(=O)O)N1Cc2c(cc(O)c4c2OC2(C4)C(C)CCC4C(C)(C)C(O)CCC42C)C1=O)C3=O (stereo not shown),"SCN2A (Homo sapiens, UniProt Q99250)","inactivated-state channel, inhibitor",,,220
C=CC(=O)Nc1cccc(Oc2nc(Nc3ccc(N4CCN(C)CC4)cc3)nc3ccoc23)c1,"BTK (Homo sapiens, UniProt Q06187)",inhibitor,,,3
N#CC1=C(N)n2c(s/c(=C/c3cn(-c4ccccc4)nc3-c3ccccc3)c2=O)=C(C#N)C1c1ccccc1Br (stereo not shown),DNA gyrase,enzyme activity,,,7350
O=C(Nc1ccc(OC(F)(F)F)cc1)N[C@H]1CC[C@H](Oc2ccc(C(=O)OCc3ccccc3)cc2)CC1,"Ephx2 (Rattus norvegicus, UniProt P80299)","enzyme activity, inhibitor",rat,,54
COc1cc2oc(=O)ccc2cc1-c1c(O)cc(O)c2c(=O)cc(-c3ccc(O)c(O)c3)oc12,alpha-glucosidase,inhibitor,,,1470 ± 70
CCCCCCCCCCCCCC(=S)NCCCC[C@H](NC(=O)c1ccc(C(=O)c2ccc(OC/C=C/CN=[N+]=[N-])cc2)cc1)C(=O)N[C@@H](C)C(=O)N[C@@H](C)C(=O)OC,"SIRT6 (Homo sapiens, UniProt Q8N6T7)","deacetylase activity, inhibitor, HPLC",,together with: H3K9ac substrate,619000 ± 49000
COc1ccc(-c2nnc(SCc3ccc(Cl)nc3)o2)c(O)c1,telomerase,"enzyme activity, inhibitor",,,2300
CCCCCCCCn1cc(O)c(=O)cc1/C=N/OCC,tyrosinase,"monophenolase activity, inhibitor",,,1600
CN(C)C(=O)Cc1ccc(OCC(=O)C23CC4CC(CC(C4)C2)C3)cc1,"HSD11B1 (Homo sapiens, UniProt P28845)",cellular enzyme activity,,,~60
CCC(=O)Nc1nc2ccc(-c3ccc4ncn(CCN5CCOCC5)c(=O)c4c3)cc2[nH]1,Aurora A kinase,,,,21.9
COc1ccc(O[C@@H]2O[C@H](COS(=O)(=O)O)[C@H](OS(=O)(=O)O)[C@H](O[C@@H]3O[C@H](C(=O)O)[C@@H](O[C@@H]4O[C@H](COS(=O)(=O)O)[C@H](OS(=O)(=O)O)[C@H](O[C@@H]5O[C@H](C(=O)O)[C@@H](OS(=O)(=O)O)[C@H](O)[C@H]5OS(=O)(=O)O)[C@H]4NC(C)=O)[C@H](O)[C@H]3OS(=O)(=O)O)[C@H]2NC(C)=O)cc1,"Midkine (Homo sapiens, UniProt P21741)",binding to tetrasaccharide,,,10600
OC[C@H](OCc1ccccc1C(F)(F)F)[C@H](O)C[S@@+]1C[C@@H](O)[C@H](O)[C@H]1CO,rat intestinal maltase,"maltase activity, inhibitor",rat intestinal disaccharidases,,330
O=C(NO)c1ccc(Cn2c3c(c4cc(F)ccc42)SC(c2ccccc2)C3)s1 (stereo not shown),"Histone deacetylase 8 (Schistosoma mansoni, UniProt A5H660)",inhibitor,,together with: Fluor-de-Lys substrate 50 µM,1940 ± 420
N#Cc1ccc(O)c(-c2nc(NCc3cnccn3)c3ccccc3n2)c1,EGFR Del19/T790M/C797S,"kinase activity, inhibitor",,,17.9

# Excerpt of the above:
SMILES,target,test,test system,conditions,IC50 [nM]
N=C(N)N/N=C1/C=C2C/C(=N\NC(=N)N)C=C2C1,"Mycosin-1 (Mycolicibacterium thermoresistibile, UniProt G7CDQ2)",inhibitor,,,48000
